Assay results collected from several papers.
Each numbered part is a random draw from the data of one study; scales do not carry over between parts.

Block 1
Target: Histone acetyltransferase KAT6A, both winged helices, GST fusion (KAT6A, Homo sapiens, UniProt Q92794, residues 1-181)
Technique: protein binding microarray
Molecule type: double-stranded DNA, one strand shown
Sample: in vitro
Tested at: not given
Notes: 8-mer, flanks averaged, mean of 2 arrays, mostly near background
Relative to: not given
Direction: higher = stronger binding
Residues (chain): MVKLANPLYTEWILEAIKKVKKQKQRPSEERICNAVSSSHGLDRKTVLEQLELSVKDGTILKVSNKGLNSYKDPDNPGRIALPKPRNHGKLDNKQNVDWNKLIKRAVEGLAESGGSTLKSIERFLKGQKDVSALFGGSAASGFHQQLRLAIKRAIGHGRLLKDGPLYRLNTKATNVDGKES
Strand | E-score
GAAGTCTA | -0.247
ACGTACCG | 0.0643
TACGGCTA | 0.199
ACTTCCCG | 0.157
CAGTTCGC | 0.184
CACCAAAG | -0.106
ATGACTGA | -0.103
CATACACC | 0.00859
CCGCAAAA | 0.195
GGGTTGAC | -0.0335
CCGATTCA | -0.124
GTGTCGTA | -0.064
ATTTTGTA | -0.0469
CACTGATA | -0.124
AACGATTA | -0.0191
CGTGGCTC | 0.0991
GGTCGGCA | 0.164
CAAACCAC | -0.0594
ATATCATA | -0.0201
CACACGTA | -0.166
CCCCCTCC | -0.249
CTCTTTTC | -0.0711
ATGGTAGC | 0.025
AACCGAAA | 0.085
CATGTATA | -0.141

Block 2
Target: RNA binding protein fox-1 homolog 2, RRM domain, GST-SBP tag (RBFOX2, Homo sapiens, UniProt O43251-10, residues 100-194)
Technique: RNA Bind-n-Seq
Molecule type: RNA
Sample: in vitro
Tested at: 365 nM
Notes: natural RNA segment, single round, ends assumed
Relative to: no-protein control
Direction: higher = stronger binding
Constant ends, left off below: GGGAGUUCUACAGUCCGACGAUC … UGGAAUUCUCGGGUGCCAA
Construct (chain): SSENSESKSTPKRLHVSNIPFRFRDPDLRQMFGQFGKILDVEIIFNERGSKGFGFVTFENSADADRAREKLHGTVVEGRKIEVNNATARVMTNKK
Strand | RBNS enrichment (R)
AUAGAAAUGUAUAUUUUAUUAUGCAAUGCCUUAGUCAUAAACUGGGCUCAAACAAUUCUCAGCCUAAAACACUGUUGUCUUUUAAAAUGCUUCCAACCCAAAGGCCUUUC | 0.414
GAUUCUCGACCUUCCCCCGGCCCGGGAGGUGCAGCCUGCGUCUGCCUCUGUCGUGUGUGCUGAUUUGAGUGGCUUAGCUUGCCACAGCGCAGCCUCUUCUGUCCCUUUCA | 0.382
GAUCGAGACUUCAGUUUCCAAUGUGUGGGGAGUCAGACCAGAAUAGAUACAGGUACUUUGAAACCACUAACCCUUCUUUACACGGGGCACAUAGGCCAGUCCGAGUUCUU | 0.432
UGUAAGAAUGUGAAUUUGAAUGUAUUUUGAAUUGUAAGAGCAAAAGAACGUUUUUGUACAAUUUUUUUUCAUUUAAUUGGAAUGAUCUUCAGGUUUCUACAAAUAGGGUA | 0.586
CUGCAGCCCCACUUCUGUUUCCCUGGAGUCUCCCAAUGGAUCAUUCAGGAGUGUCCUAUGUGAGAAUUGAGCCAAGGAAAAUACUCAUGCAACCAGCCUGAGUCGCGGUG | 0.68
GAAAGGGAACCUCAGCUCGUUAGGCAGGAAGAGUUGAUAUUUAAUAAAGAGAGAACAAUUGAACCGAAGCCCAGCAGUCCUCUUGUCAGCUCUUUCCAUCUUCAGGAGUG | 0.318
ACAGUCUGUCUAUGUGUGCAUGUCAGAGGGAGAGAAGAGACAGACUGUAGGAGUGGGUCUCACAGUUAUCCAGCCCUGUGAUACUUGGGUUGACCCCAUGUUUCAGAUCC | 24.1
UGGGAUCAGGUGGCCCUCCAACUCAGCACAGGAAAUAAGUAGAAACAUUUCAGCAGGCCACCUCCCCUCAUCUUCCCCGCCCUGUCCAGCGCCCUGGCAAAGGCUGACAA | 0.594
UUAAAAGUAUUCAUUCCUCUCGAGGACCCAGGAUCAAUUUCCAGCAUCCACAUGGCAGCUCACAACCAUCUGGAACUCCAGUUCCAGAGAAUCCAAUGCCCUUCUGGCCU | 0.358
GAGUAUUAUUUUACAUAACCCGUCCUAGAGUAACAUUUUAGGCAACAUUCUUCAUUGCAAGUAAAAGAUCCAUAAGUGGCAUUUUACACGGCUGCGAGUAUUGUUAUAUC | 0.375
AACUCAGCCAGGAAUGUGGCUCACACCUGUAAUCCCAGCACUUUGGGACACCUAGGUGGGAGCAUCGCUUGAAGCCAGGAGUUCAAGACCAGCUUGGGCAACGUAGUGAG | 2.01
AUGUGUAGACAUUAGUGAAAAUUAACAAUGCACGUUAUUUGCAAAUGUCAGCAAUUAUCUGUACAUGGUAAGAACGAAAAAUACCUUCAUUGAAAUAAAGCUACAGCACA | 2.17

Block 3
Target: Interferon regulatory factor 5, full length, phosphomimetic (IRF5, Homo sapiens, UniProt Q13568-2, residues 1-514, S451D/S453D/S456D/S462D)
Technique: protein-binding microarray
Molecule type: double-stranded DNA, one strand shown
Sample: in vitro
Tested at: 940 nM top
Notes: 60-bp whole probe
Together with: salmon DNA 0.4 mg/ml
Relative to: random background probes
Direction: higher = stronger binding
Constant ends, left off below: GCCTAGCAC … GTCTTGATTCGCTTGACGCTGCTG
Strand | fitted relative affinity [z-score]
TTAGGTCTGGGTTTCGGTTAGTGCTAG | 6.79
GACGATATCGGGTTTCGAGTCGTGCTA | 3.32
GACGGTATCGGACGGGGGACGTGCTAG | 4.19
GACGATCTGAGTATCGAGACGTGCTAG | 1.54
TCAAGTTTTCCTCTGTCACTGTGCTAG | 1.14
GACGGTATCGGGAATCGGGACGTGCTA | 3.31
TATATATCCATTATAGATGAGTGCTAG | 0.0116
TCATGTTTACATATGTTACTGTGCTAG | -0.0784
TTTGATTCCAGTTTCGATTAGTGCTAG | 9.58
GACGGTTTCGGACGGGGGACGTGCTAG | 8.33
TTAGGTTTCGGTTCCTGTTAGTGCTAG | 14.7
TCATGTCTCTGTCCCTGACTGTGCTAG | 0.764
GACGAAATCGGGACTGGAGACGTGCTA | -0.466
TTAGGTCTCCTTTACCTTTAGTGCTAG | 0.733
GCCTTGTTCGTCGCTCCGCTGTGCTAG | -0.0357
TACTCTTGTGACTATGGACCGTGCTAG | 0.249
TCATTTTTGTTGTTTTTACTGTGCTAG | 1.34
TTAGGACTGGGTTTGGGTTAGTGCTAG | -0.399
GACGGTTTTGGTTTCGGGACGTGCTAG | 8.53

Block 4
Target: Hepatocyte nuclear factor 3-alpha (Foxa1, Mus musculus, UniProt P35582, residues 1-468, full length assumed)
UniProt P35582, sequence (whole entry, looked up): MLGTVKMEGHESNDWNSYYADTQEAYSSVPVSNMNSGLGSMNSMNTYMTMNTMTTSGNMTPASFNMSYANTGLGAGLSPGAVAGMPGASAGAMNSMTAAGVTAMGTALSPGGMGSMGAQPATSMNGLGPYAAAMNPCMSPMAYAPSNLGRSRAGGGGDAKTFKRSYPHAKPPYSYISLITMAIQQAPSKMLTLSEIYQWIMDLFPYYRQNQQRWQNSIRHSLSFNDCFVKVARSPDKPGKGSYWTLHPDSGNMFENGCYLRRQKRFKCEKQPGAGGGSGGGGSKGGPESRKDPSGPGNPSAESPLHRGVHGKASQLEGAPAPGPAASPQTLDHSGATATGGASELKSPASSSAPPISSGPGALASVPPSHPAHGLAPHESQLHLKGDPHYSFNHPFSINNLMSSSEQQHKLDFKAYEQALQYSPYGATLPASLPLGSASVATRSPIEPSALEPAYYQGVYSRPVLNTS
Technique: EMSA with sequencing
Molecule type: double-stranded DNA, one strand shown
Sample: in vitro
Tested at: 10 and 20 nM
Notes: whole designed probe, mean of two concentrations, ends assumed
Relative to: negative control set to 0
Direction: higher = stronger binding
Constant ends, left off below: GTGAGCGGTGCCCATTGATGGGGAAC … TTTCACTGGGATCGTGGGGAC
Strand | normalised bound fraction
ATACAGGTTTTATAACATATGTAGTTAAGGTTTCTAAAGTGAGATTATGTCTCAACTAACTATAACTGAAATAGAAGAGTGTATCTATTCCAATGTAAACATGTTGACTGATAATGAGAAAAATGATCCTTATAAAGAATAGCAAATCATGATCCTGAGAGAGTAAGTATCAAAGCTGATGGGAGGATGCTAT | 0.348 ratio
AAAAAAAAAAAGTGTGGATAATTCTAAAAGGGTCACAGCTCAGGCCCCATGATGTAAGTCTCTCTGGGAAGGGTGGCGTTGGCCATCACGCTGTGTAATCTGGGATCCCGGGGGCCAGCATCGCACTGCTCTCCATCCCCAGCGAAAGGAAGGGAGGCAGACACTGGGCAGCGGCACTCGGAGTCCACCCAGT | -0.0486 ratio
ATGTGGGAACTAATTGAGGACCATGTTTACAATGCGTACAAATCATAAATCAATTAGTTCATATTGATTTACAAACAACGTAGAAAAAGTATTTGTTTACATTGATACTGTCCATGTAAACTTTTTTCAATTCAAAAGAAACACATAGTTCTGTCATAAAGTAGATTTTCTATCCCTTTTATTTTCTGAGCTT | 0.331 ratio
TTTAGCTGTTTGAATATAATATGTTTACGTTTACTCCTCTTCTTCCTCCTGCCTCCCTTTCTCTTCCTTCTTTCTCTTATTTTTCTTCTATCCAGATTGCTCTTCTTAGGTTAATGAATGTAGTTTGGTGTCATTATTTTTAAAAACTCTGAGCAACCATCCTTACAAATACTGTTTCTGCCCTGTTCTCTCC | 0.0653 ratio
CAATGGGGTAGGTCAGCCCCAGTGAACTCTCAAATGACCACTGAAGGAGGAAGTGAGTGCAGAGTGTGATACCACTCACATCCCAGCCCAGACTGTTTGCTCAGCTGGGAGGAGTGTTGCAATTTTCTTCCTGCACGAGATAACACCCCTTCTCATGGCTTCAGGCATCACCTATCTCCTCTAGGCTGCGCTC | 0.2 ratio
TGAAGGAAATTTTATATTTATGTGTAGTAAACCACTTAATTTTTCAGCCTGGAACAAATATCCTCTTTAATTTAATGAATTGAATTGTTCTTCTTGTTTACATTGATAAATCTCAGTTCAAAGAGAGAACAAGTGTATTACATGGCATTTAAAATTAAAAATTAAAAAGAGTTTTACAAGGAAAGCCAAATTA | 0.363 ratio
CCAAAGTATCACAGGGAGAGATGGGCCTCTTGGGGCAGCAGCAGCAGCTGAAGCAGGCTGACTCACAGCTGCTTCTAATATGCTAGGCTTTGTGTAATCTGGCTTTATGACACAAGTGGGCTGACTACAGTGCAATTGGAGTGTGGCATCTGAGTCACTGTGAGGCTCTAGCTGGCTTCTTCCAGCCCTGGCC | -0.0197 ratio
ATCTTCCTTTCCCCCCTTGCCCCACCAGCTCACCTTCCCGGGTTATTTGCAGATAGGAAAATAAATAAAGCCGGCATTCGTTAACCCTCTTCTGGCGCAAACTGCTGTTTGCTCTGGATGAATCATGGTCCTTTGGCGACGCCAGGCTCCGGGAGAGCAAAGCACCGTGTCAGGGCCATGATCCGGGGTGGCC | 0.332 ratio

For quick reference, copied from above (block 1):
Strand | E-score
CAGTTCGC | 0.184
CGTGGCTC | 0.0991
ATATCATA | -0.0201
CACCAAAG | -0.106
CATGTATA | -0.141
